Measurements pooled from the literature.
Several values in a cell are separate wells, animals, samples, runs or records. ± gives the spread as reported.

Compound | target | assay | test system | setting | scale | measurement | value
O=S(=O)(O)C1CCNCC1 | Sodium- and chloride-dependent taurine transporter (SLC6A6, Homo sapiens, UniProt P31641, G62A) | binding, microscale thermophoresis |  | 15.6 µM, room temperature, together with: 50 nM labelled protein | higher = more binding | normalised MST signal | 0.0221
CC[C@@H]1[C@H](F)C(=O)N[C@@H]1COc1nccc2cc(C(N)=O)c(OC)cc12 | RPS6KC1 (Homo sapiens, UniProt Q96S38) | ATP probe binding, KiNativ profiling, measured: domain 1 ATP site | THP-1 cell lysate | 0.01 mM |  | inhibition | 11.8%
Cc1ncccc1OC[C@@H]1CN(CCN2CCc3ccccc32)CCO1 | 5-hydroxytryptamine receptor 4 (HTR4, Homo sapiens, UniProt Q13639) | radioligand binding |  | concentration not given |  | inhibition | 28.8%
CC(C)C[C@@H]1NC(=O)[C@H](C(C)C)NC(=O)CNC(=O)[C@H](CC(N)=O)NC(=O)[C@@H]2CCCN2C(=O)[C@H](Cc2ccc(O)cc2)NC(=O)[C@H](CCCNC(=N)N)NC(=O)[C@H](Cc2ccccc2)NC(=O)[C@@H](NC(=O)[C@H](CCCCN)NC(=O)[C@@H]2CCCN2C(=O)[C@H](C)NC(=O)[C@H](C)NC(=O)[C@@H](N)Cc2ccc(O)cc2)CSSC[C@@H](C(=O)N[C@H](C(N)=O)[C@@H](C)O)NC(=O)[C@H](C)NC1=O | Alpha-2-HS-glycoprotein, asialo (AHSG, Bos taurus, UniProt P12763) | binding, isothermal titration calorimetry |  | pH 7.0, 25 °C, together with: asialofetuin |  | -TΔS | -3.97 kcal/mol
CC[C@H](C)[C@@H]1NC(=O)[C@H](Cc2ccc(O)cc2)NC(=O)CSC[C@@H](C(N)=O)NC(=O)CNC(=O)[C@H](Cc2c[nH]cn2)NC(=O)[C@H](CCCNC(=N)N)NC(=O)[C@H](CC(N)=O)NC(=O)[C@@H]2CCCN2C(=O)[C@H](Cc2ccccc2)NC(=O)[C@H]([C@@H](C)O)NC(=O)CNC(=O)[C@H](CC(C)C)NC(=O)[C@@H]2CCCN2C(=O)[C@H]([C@@H](C)O)NC(=O)[C@H](CCCCN)NC1=O | VPS35/VPS29 (Homo sapiens, UniProt Q96QK1+Q9UBQ0) | binding, ITC |  | 25 °C, heterodimer |  | ΔG | -9.6 ± 0.07 kcal/mol
CCN1CCC[C@H]1CNC(=O)c1c(O)c(Cl)cc(Cl)c1OC | Lysophosphatidic acid receptor 4 (LPAR4, Homo sapiens, UniProt Q99677) | β-arrestin recruitment, TANGO luminescence, measured: GPR23 |  | concentration not given | baseline: basal luminescence | log2 fold change | 0.125
Nc1ccc(C(=O)O)cc1 | BEST1, with wild-type BEST1 (Homo sapiens, UniProt O76090, A243T) | whole-cell patch clamp | HEK293 co-expressing WT and A243T mutant | concentration not given, membrane potential 100 mV |  | current density | 33.2 pA/pF and 41.6 pA/pF and 33.7 pA/pF and 7.07 pA/pF and 11.1 pA/pF and 36.5 pA/pF and 38.4 pA/pF
CN(C)CCC=C1c2ccccc2CCc2ccccc21 | Nuclear receptor subfamily 2 group C member 2, ligand-binding domain (Homo sapiens, UniProt P49116) | SPR imaging |  | 600 nM |  | koff | 1.24e-07 s⁻¹
Nc1ncnc2c1ncn2[C@@H]1O[C@H](COP(=O)(O)CP(=O)(O)OP(=O)(O)O)[C@@H](O)[C@H]1O | P2X purinoceptor 1 (P2RX1, Homo sapiens, UniProt P51575, L218T) | calcium influx |  | 100 nM | baseline: ionomycin response | calcium influx | 36.4% and 67.2% and 43.8%
O=C(O)c1ccccc1OC1=NS(=O)(=O)c2ccccc21 | Pyruvate kinase PKLR (PKLR, Homo sapiens, UniProt P30613) | enzyme activity, activator |  | 10 µM |  | activity | inactive
Cc1cccc(N2CC(C(=O)O)CC2=O)c1 (stereo not drawn) | Coatomer subunit beta', WD repeat domain (Homo sapiens, UniProt P35606) | binding, affinity selection mass spectrometry |  |  | baseline: other proteins in batch | log fold enrichment | 0.0262
Nc1nc2c(ncn2[C@@H]2O[C@H](COP(=O)(O)O)[C@@H](O)[C@H]2O)c(=O)[nH]1 | GUK1 (Homo sapiens, UniProt Q16774, S37A) | enzyme activity, NADH-coupled |  | 250 µM |  | reaction rate | -0.155 s⁻¹ and 0.819 s⁻¹ and 1.18 s⁻¹
O=C(COP(=O)(O)O)[C@@H](O)[C@H](O)[C@H](O)COP(=O)(O)O | DNA-directed RNA polymerase II subunit RPB1 (Homo sapiens, UniProt P24928) | thermal proteome profiling, measured: POLR2A | HepG2 cell lysate | concentration not given, 57 over 37 °C, mean | baseline: compound over control | thermal stability ratio | 0.546
O=C1CSC(=S)N1NC(=S)SSC(=S)NN1C(=O)CSC1=S | Tyrosine-protein phosphatase non-receptor type 22 (PTPN22, Homo sapiens, UniProt Q9Y2R2) | inhibitor, phospho-flow cytometry |  | 100 µM, together with: TCR stimulation | baseline: DMSO | positive cells | 26%
CCS(=O)(=O)c1nc(C2CC2)cc(C(F)(F)F)n1 | Exportin-1 (XPO1, Homo sapiens, UniProt O14980) | nuclear export, high content imaging | HeLa Kyoto reporter | 50 µM, 2 h |  | cells with nuclear reporter | 7.12% and 9.08% and 8.99%

For quick reference, copied from above:
Compound | target | assay | test system | setting | scale | measurement | value
Cc1cccc(N2CC(C(=O)O)CC2=O)c1 (stereo not drawn) | Coatomer subunit beta', WD repeat domain (Homo sapiens, UniProt P35606) | binding, affinity selection mass spectrometry |  |  | baseline: other proteins in batch | log fold enrichment | 0.0262
